Experimental data from different studies.
Lines come from different studies, so protocols differ. ± marks the error that the study gave.

Compound	test	system	conditions	scale	quantity	value
N=C(N)NCCC[C@@H]1NC(=O)[C@H](CCCCNC(=O)CCOCCOCCOCCOCCNC(=O)CN2CCN(CC(=O)O)CCN(CC(=O)O)CCN(CC(=O)O)CC2)NC(=O)[C@@H](Cc2ccccc2)NC(=O)[C@H](CC(=O)O)NC(=O)CNC1=O [indium-111 labelled]	–	athymic nude mice, female, U-87 MG glioma xenograft, tumour and kidney	intravenous, 24 h	reference: tumour over kidney	tumour to tissue ratio	0.75 ± 0.07
CCCC[C@H](NC(=O)CNC(=O)[C@H](CO)NC(=O)CNC(=O)c1ccc(NN)nc1)C(=O)N[C@H]1CC(=O)NCCCC[C@@H](C(N)=O)NC(=O)[C@H](Cc2c[nH]c3ccccc23)NC(=O)[C@H](CCCNC(=N)N)NC(=O)[C@@H](Cc2ccccc2)NC(=O)[C@H](Cc2c[nH]cn2)NC1=O [technetium-99m labelled]	–	C57 mouse, B16/F1 melanoma, skin	intravenous, 2 h	–	uptake	0.22 ± 0.06 %ID/g
N=C(N)NCCC[C@@H]1NC(=O)[C@H](CCCCNC(=O)CNC(=O)CNC(=O)CNC(=O)CC[C@H](NC(=O)CCOCCOCCOCCOCCNC(=O)CC[C@H](NC(=O)CN2CCN(CC(=O)O)CCN(CC(=O)O)CCN(CC(=O)O)CC2)C(=O)NCCOCCOCCOCCOCCC(=O)N[C@@H](CCC(=O)NCC(=O)NCC(=O)NCC(=O)NCCCC[C@@H]2NC(=O)[C@@H](Cc3ccccc3)NC(=O)[C@H](CC(=O)O)NC(=O)CNC(=O)[C@H](CCCNC(=N)N)NC2=O)C(=O)NCC(=O)NCC(=O)NCC(=O)NCCCC[C@@H]2NC(=O)[C@@H](Cc3ccccc3)NC(=O)[C@H](CC(=O)O)NC(=O)CNC(=O)[C@H](CCCNC(=N)N)NC2=O)C(=O)NCC(=O)NCC(=O)NCC(=O)NCCCC[C@@H]2NC(=O)[C@@H](Cc3ccccc3)NC(=O)[C@H](CC(=O)O)NC(=O)CNC(=O)[C@H](CCCNC(=N)N)NC2=O)NC(=O)[C@@H](Cc2ccccc2)NC(=O)[C@H](CC(=O)O)NC(=O)CNC1=O [indium-111 labelled]	–	athymic nude mice, female, U-87 MG glioma xenograft, tumour and lungs	intravenous, 0.5 h	reference: tumour over lungs	tumour to tissue ratio	2.68 ± 0.69
CCCC[C@H](NC(=O)CNC(=O)CNC(=O)c1ccc(NN)nc1)C(=O)N[C@H]1CC(=O)NCCCC[C@@H](C(N)=O)NC(=O)[C@H](Cc2c[nH]c3ccccc23)NC(=O)[C@H](CCCNC(=N)N)NC(=O)[C@@H](Cc2ccccc2)NC(=O)[C@H](Cc2c[nH]cn2)NC1=O [technetium-99m labelled]	–	C57 mouse, B16/F1 melanoma-bearing, pancreas	intravenous, 24 h	–	tissue uptake	0.03 ± 0.02 %ID/g
N=C(N)NCCC[C@@H]1NC(=O)[C@H](CCCCNC(=O)CNC(=O)CNC(=O)CNC(=O)CC[C@H](NC(=O)CNC(=O)CNC(=O)CNC(=O)[C@H](CCCCNC(=O)c2ccc(NN)nc2)NC(=O)c2ccc(NN)nc2)C(=O)NCC(=O)NCC(=O)NCC(=O)NCCCC[C@@H]2NC(=O)[C@@H](Cc3ccccc3)NC(=O)[C@H](CC(=O)O)NC(=O)CNC(=O)[C@H](CCCNC(=N)N)NC2=O)NC(=O)[C@@H](Cc2ccccc2)NC(=O)[C@H](CC(=O)O)NC(=O)CNC1=O [technetium-99m labelled]	–	female athymic nude mice	intravenous, 1 h, U-87 MG glioma xenograft	reference: tumour over muscle	tissue ratio	9.64 ± 0.46
CC(C)C[C@H](NC(=O)[C@@H]1CCCN1C(=O)[C@H](CCCCN)NC(=O)[C@@H](N)CO)C(=O)N1CCC[C@H]1C(=O)N[C@@H](CCC(=O)O)C(=O)N[C@H](C(=O)N[C@H](C(=O)N[C@@H](CC(=O)O)C(=O)N[C@@H](CCC(=O)O)C(=O)N[C@@H](Cc1ccc(O)cc1)C(=O)N[C@@H](Cc1cn(CCOCCOCCOCCNC(=O)CCc2ccc(O)c(CN(CCN(CC(=O)O)Cc3cc(CCC(=O)NCCCC[C@H](NC(=O)N[C@@H](CCC(=O)O)C(=O)O)C(=O)O)ccc3O)CC(=O)O)c2)nn1)C(=O)O)[C@@H](C)O)C(C)C [gallium-68 labelled]	–	NMRI nu/nu mice, LNCaP tumour, blood	135.34 nmol/kg, low molar activity	–	standardized uptake value	0.12 g/g
N=C(N)NCCC[C@@H]1NC(=O)[C@H](CCCCNC(=O)CC[C@H](NC(=O)CCOCCOCCOCCOCCNC(=O)CC[C@H](NC(=O)CN2CCN(CC(=O)O)CCN(CC(=O)O)CCN(CC(=O)O)CC2)C(=O)NCCOCCOCCOCCOCCC(=O)N[C@@H](CCC(=O)NCCCC[C@@H]2NC(=O)[C@@H](Cc3ccccc3)NC(=O)[C@H](CC(=O)O)NC(=O)CNC(=O)[C@H](CCCNC(=N)N)NC2=O)C(=O)NCCCC[C@@H]2NC(=O)[C@@H](Cc3ccccc3)NC(=O)[C@H](CC(=O)O)NC(=O)CNC(=O)[C@H](CCCNC(=N)N)NC2=O)C(=O)NCCCC[C@@H]2NC(=O)[C@@H](Cc3ccccc3)NC(=O)[C@H](CC(=O)O)NC(=O)CNC(=O)[C@H](CCCNC(=N)N)NC2=O)NC(=O)[C@@H](Cc2ccccc2)NC(=O)[C@H](CC(=O)O)NC(=O)CNC1=O [indium-111 labelled]	–	athymic nude mice, female, U-87 MG glioma xenograft, tumour and lungs	intravenous, 1 h	reference: tumour over lungs	tumour to tissue ratio	4.31 ± 0.96
CSCC[C@H](NC(=O)[C@H](CC(C)C)NC(=O)[C@H](Cc1c[nH]cn1)NC(=O)CNC(=O)[C@@H](NC(=O)[C@H](C)NC(=O)[C@H](Cc1c[nH]c2ccccc12)NC(=O)[C@H](CCC(N)=O)NC(=O)CCCCNC(=O)CSCCSCCP(CO)CO)C(C)C)C(N)=O [technetium-99m labelled]	–	female CF-1 mouse, urine	intravenous, dose not given, 4 h	–	urinary excretion	45.7%
CSCC[C@H](NC(=O)[C@H](CC(C)C)NC(=O)[C@H](Cc1c[nH]cn1)NC(=O)CNC(=O)[C@@H](NC(=O)[C@H](C)NC(=O)[C@H](Cc1c[nH]c2ccccc12)NC(=O)[C@H](CCC(N)=O)NC(=O)CCCCCNC(=O)CNC(=O)CNC(=O)CNC(=O)CSC(C)=O)C(C)C)C(N)=O [technetium-99m labelled]	–	nude mouse, PC-3 xenograft, bone	30 min	–	tissue uptake	0.5 ± 0.12 %ID/g
Cc1ncsc1-c1ccc(CNC(=O)[C@@H]2C[C@@H](OC(=O)OCCSSCCn3cc(CCCC(=O)N[C@@H](Cc4ccc(O)cc4)C(=O)N[C@@H](CCCNC(=N)N)C(=O)N[C@@H](CCCNC(=N)N)C(=O)N[C@@H](CCCNC(=N)N)C(=O)N[C@@H](CCCNC(=N)N)C(=O)N[C@@H](CCCNC(=N)N)C(=O)N[C@@H](CCCNC(=N)N)C(=O)N[C@@H](CCCNC(=N)N)C(=O)N[C@@H](CCCNC(=N)N)C(=O)N[C@@H](CCCNC(=N)N)C(N)=O)nn3)CN2C(=O)[C@@H](NC(=O)COCCOCCOCCNC(=O)C[C@@H]2N=C(c3ccc(Cl)cc3)c3c(sc(C)c3C)-n3c(C)nnc32)C(C)(C)C)cc1	UHPLC	PBS	100 nM, 24 h, 37 °C, together with: 5 mM glutathione	reference: total peak area	released payload	100%
N=C(N)NCCC[C@@H]1NC(=O)[C@H](CCCCNC(=O)CCOCCOCCOCCOCCNC(=O)CC[C@H](NC(=O)CCOCCOCCOCCOCCNC(=O)CC[C@H](NC(=O)CN2CCN(CC(=O)O)CCN(CC(=O)O)CCN(CC(=O)O)CC2)C(=O)NCCOCCOCCOCCOCCC(=O)N[C@@H](CCC(=O)NCCOCCOCCOCCOCCC(=O)NCCCC[C@@H]2NC(=O)[C@@H](Cc3ccccc3)NC(=O)[C@H](CC(=O)O)NC(=O)CNC(=O)[C@H](CCCNC(=N)N)NC2=O)C(=O)NCCOCCOCCOCCOCCC(=O)NCCCC[C@@H]2NC(=O)[C@@H](Cc3ccccc3)NC(=O)[C@H](CC(=O)O)NC(=O)CNC(=O)[C@H](CCCNC(=N)N)NC2=O)C(=O)NCCOCCOCCOCCOCCC(=O)NCCCC[C@@H]2NC(=O)[C@@H](Cc3ccccc3)NC(=O)[C@H](CC(=O)O)NC(=O)CNC(=O)[C@H](CCCNC(=N)N)NC2=O)NC(=O)[C@@H](Cc2ccccc2)NC(=O)[C@H](CC(=O)O)NC(=O)CNC1=O [indium-111 labelled]	–	athymic nude mice, female, U-87 MG glioma xenograft, spleen	intravenous, 3 µCi, 72 h	–	tissue uptake	1.12 ± 0.15 %ID/g
COc1cc(OC)cc(C2=C3c4ccccc4C(c4ccc(NC(=S)S[C@@H]5O[C@H](CO)[C@@H](O)[C@H](O)[C@H]5O)cc4)=[N+]3[B-](F)(F)n3c2c2ccccc2c3-c2ccc(NC(=S)NCCOCCOCCOCCC(=O)N[C@@H](CC(C)C)C(=O)N[C@@H](C)C(=O)N[C@@H](CCCNC(=N)N)C(=O)N[C@@H](CC(C)C)C(=O)N[C@@H](CC(C)C)C(=O)N[C@H](C(N)=O)[C@@H](C)O)cc2)c1	–	DMSO	–	reference: methylene blue	fluorescence quantum yield	0.47
CCCC[C@H](NC(=O)CCCCCCCNC(=O)c1ccc(NN)nc1)C(=O)N[C@H]1CC(=O)NCCCC[C@@H](C(N)=O)NC(=O)[C@H](Cc2c[nH]c3ccccc23)NC(=O)[C@H](CCCNC(=N)N)NC(=O)[C@@H](Cc2ccccc2)NC(=O)[C@H](Cc2c[nH]cn2)NC1=O [technetium-99m labelled]	–	C57 mouse, B16/F1 melanoma, bone	intravenous, 0.5 h	–	uptake	1.09 ± 0.28 %ID/g

A few entries again:
Compound	test	system	conditions	scale	quantity	value
N=C(N)NCCC[C@@H]1NC(=O)[C@H](CCCCNC(=O)CC[C@H](NC(=O)CCOCCOCCOCCOCCNC(=O)CC[C@H](NC(=O)CN2CCN(CC(=O)O)CCN(CC(=O)O)CCN(CC(=O)O)CC2)C(=O)NCCOCCOCCOCCOCCC(=O)N[C@@H](CCC(=O)NCCCC[C@@H]2NC(=O)[C@@H](Cc3ccccc3)NC(=O)[C@H](CC(=O)O)NC(=O)CNC(=O)[C@H](CCCNC(=N)N)NC2=O)C(=O)NCCCC[C@@H]2NC(=O)[C@@H](Cc3ccccc3)NC(=O)[C@H](CC(=O)O)NC(=O)CNC(=O)[C@H](CCCNC(=N)N)NC2=O)C(=O)NCCCC[C@@H]2NC(=O)[C@@H](Cc3ccccc3)NC(=O)[C@H](CC(=O)O)NC(=O)CNC(=O)[C@H](CCCNC(=N)N)NC2=O)NC(=O)[C@@H](Cc2ccccc2)NC(=O)[C@H](CC(=O)O)NC(=O)CNC1=O [indium-111 labelled]	–	athymic nude mice, female, U-87 MG glioma xenograft, tumour and lungs	intravenous, 1 h	reference: tumour over lungs	tumour to tissue ratio	4.31 ± 0.96
